Assay results from different studies.
Every numbered part comes from another study and shows a few of its results, in no order.

Block 1
Target: Interferon regulatory factor 5, full length, phosphomimetic (IRF5, Homo sapiens, UniProt Q13568-2, residues 1-514, K96S/S451D/S453D/S456D/S462D)
Technique: protein-binding microarray
Form: double-stranded DNA, one strand shown
Matrix: in vitro
Tested at: 250 nM
Notes: 60-bp whole probe
Added: salmon DNA 0.4 mg/ml
Baseline: random background probes
Direction: higher = stronger binding
Strand | log fluorescence
GCCTAGCACATAGGTATCCTACTGCTTTAGTGCTAGGTCTTGATTCGCTTGACGCTGCTG | 0.0418 z-score
GCCTAGCACGACGGTTTCTTTTCCCTGACGTGCTAGGTCTTGATTCGCTTGACGCTGCTG | 1.51 z-score
GCCTAGCACTTAGGTCTCATTATCCTTTAGTGCTAGGTCTTGATTCGCTTGACGCTGCTG | 0.288 z-score
GCCTAGCACTTAGGACTGGGTATCGGTAAGTGCTAGGTCTTGATTCGCTTGACGCTGCTG | 2.75 z-score

Block 2
Target: Sal-like protein 4, full length isoform A (SALL4, Homo sapiens, UniProt Q9UJQ4, residues 1-1053)
UniProt Q9UJQ4, sequence (whole entry, looked up): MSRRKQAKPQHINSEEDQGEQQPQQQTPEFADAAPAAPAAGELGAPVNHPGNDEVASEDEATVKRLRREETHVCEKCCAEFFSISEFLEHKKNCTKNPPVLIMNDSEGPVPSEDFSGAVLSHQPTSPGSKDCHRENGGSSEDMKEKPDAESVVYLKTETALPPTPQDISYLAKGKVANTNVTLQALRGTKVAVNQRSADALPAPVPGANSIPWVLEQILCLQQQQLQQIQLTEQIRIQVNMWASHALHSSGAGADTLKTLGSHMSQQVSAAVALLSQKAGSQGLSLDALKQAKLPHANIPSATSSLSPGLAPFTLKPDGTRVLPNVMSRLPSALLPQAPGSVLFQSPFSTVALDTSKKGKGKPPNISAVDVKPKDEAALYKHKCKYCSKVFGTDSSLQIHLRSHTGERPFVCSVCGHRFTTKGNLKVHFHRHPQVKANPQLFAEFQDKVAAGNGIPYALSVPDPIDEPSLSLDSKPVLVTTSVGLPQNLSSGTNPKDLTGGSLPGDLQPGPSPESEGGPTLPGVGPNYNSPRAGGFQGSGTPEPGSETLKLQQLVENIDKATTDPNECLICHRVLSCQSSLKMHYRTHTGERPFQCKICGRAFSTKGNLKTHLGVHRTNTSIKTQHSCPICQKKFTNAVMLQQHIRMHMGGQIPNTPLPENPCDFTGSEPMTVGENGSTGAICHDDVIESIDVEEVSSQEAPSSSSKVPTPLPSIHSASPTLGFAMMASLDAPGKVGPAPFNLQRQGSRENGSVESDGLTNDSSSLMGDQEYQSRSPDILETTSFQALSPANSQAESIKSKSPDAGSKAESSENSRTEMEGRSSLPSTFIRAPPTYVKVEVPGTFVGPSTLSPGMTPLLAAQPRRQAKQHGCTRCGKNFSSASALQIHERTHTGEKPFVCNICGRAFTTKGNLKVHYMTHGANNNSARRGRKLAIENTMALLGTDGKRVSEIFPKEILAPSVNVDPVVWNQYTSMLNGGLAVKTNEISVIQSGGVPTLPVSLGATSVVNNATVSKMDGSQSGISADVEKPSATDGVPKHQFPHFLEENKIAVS
Technique: universal PBM
Form: double-stranded DNA, one strand shown
Matrix: in vitro
Tested at: 600 nM
Notes: 8-mer, flanks averaged, mean of replicates
Direction: higher = stronger binding
Strand | E-score
AGGGTGGA | -0.171
CAAGTACG | -0.0285
CTAAATAC | 0.216
CAGTCTGG | -0.175

Block 3
Target: Histone acetyltransferase KAT6A, both winged helices, GST fusion (KAT6A, Homo sapiens, UniProt Q92794, residues 1-181)
Technique: protein binding microarray
Form: double-stranded DNA, one strand shown
Matrix: in vitro
Tested at: not given
Notes: 8-mer, flanks averaged, mean of 2 arrays, mostly near background
Baseline: not given
Direction: higher = stronger binding
Target sequence (chain): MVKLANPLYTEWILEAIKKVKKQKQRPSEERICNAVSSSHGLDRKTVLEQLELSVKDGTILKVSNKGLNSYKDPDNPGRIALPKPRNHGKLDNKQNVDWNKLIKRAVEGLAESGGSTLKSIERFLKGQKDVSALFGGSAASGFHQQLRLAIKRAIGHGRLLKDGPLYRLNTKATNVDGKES
Strand | E-score
CCGGTGAC | 0.13
CTACATTC | -0.0689
AGCCGAAA | -0.067

Other studies, line by line
Substance | target | assay | system | setting | how to read | endpoint | value
PhoQ, residues 284 288 289 292 302 303 SSTLLI | PhoP, residues 12 14 15 18 19 LQHIR (Escherichia coli, UniProt P23836) | Sort-seq, measured: YFP reporter | E. coli | PhoQ-PhoP variant library, added: 10 µM Mg2+ | baseline: high Mg2+ state, higher = stronger signaling | fold induction | 2.05

Excerpt of the above (block 3):
Strand | E-score
AGCCGAAA | -0.067
